Results collected from several papers.
IGF1R phosphorylated: Insulin-like growth factor 1 receptor, phosphorylated (IGF1R, Homo sapiens, UniProt P08069)
IGF1R: Insulin-like growth factor 1 receptor (IGF1R, Homo sapiens, UniProt P08069)

`CNC(=O)C[C@H](Cc1ccc(C#N)cc1)NC(=O)c1cc(-c2ccc(CN[C@H](C)c3ccc(C)cc3)o2)ccc1Cl`: “activity vs control” 111% (IGF1R phosphorylated; enzyme activity, inhibitor; 1 µM).
The inhibition of `CN1CC[C@@H](COc2cnc(C#N)cc2-c2ccn3nc(NC(=O)C4CC4)cc3c2)C1` is reported as -5% (IGF1R phosphorylated; enzyme activity, inhibitor; 1 µM).
For `CN1CCN(Cc2ccc(NC(=O)c3cccc(C#Cc4cnc(N)c5ncccc45)c3)cc2C(F)(F)F)CC1`, the remaining binding was 94% (IGF1R; cell-free assay, competition with immobilised ligand; 0.5 µM).
The remaining binding of `CNC1C[S+]2CC[S+]3CC[S+](C1)[Ru-4]321([N]=C=S)[n]2c3ccc(OC)cc3c3c4c(c5cc(F)c[n+]1c5c32)C(=O)NC4=O` (centres unmarked) is reported as 100% (IGF1R; KinomeScan; 0.1 µM; relative to: untreated).
With `CCN1CCN(Cc2ccc(C(=O)Nc3ccc(C)c(NCc4cnc5[nH]ccc5c4OC)c3)cc2C(F)(F)F)CC1` the remaining binding was 100% (IGF1R; binding, competition with immobilised ligand; 1 µM).
For `CC(=O)NCC(=O)N[C@@H](Cc1ccccc1)C(=O)N[C@@H](Cc1ccccc1)C(=O)N[C@@H](Cc1ccc(O)cc1)C(=O)NCC(=O)N[C@@H](Cc1ccc(O)cc1)C(=O)NCC(=O)N[C@@H](CO)C(=O)N[C@@H](CO)C(=O)N[C@@H](CO)C(=O)N[C@@H](CCCNC(=N)N)C(=O)N[C@@H](CCCNC(=N)N)C(=O)N[C@@H](C)C(=O)N1CCC[C@H]1C(=O)N[C@@H](CCC(N)=O)C(=O)N[C@H](C(=O)O)[C@@H](C)O`, the affinity increase was 10.7 (IGF1R; binding, microscale thermophoresis; unit not given; relative to: unassembled peptide Ac-IGF).
The remaining activity of `Cc1cccc(-c2ccc3nc(NC(=O)C4CCCO4)nn3c2)c1` (centres unmarked) is reported as 78% (IGF1R; enzyme activity, Dundee kinase panel; 10 µM).
The inhibition of `COc1cc(OC)c(F)c(/C=C/c2cnc3ccn(S(=O)(=O)c4cn(CCF)cn4)c3n2)c1F` is reported as 11.5% (IGF1R; 1000 nM).
`CN1CCN(c2ccc(Nc3ncc(Cl)c(Nc4ccccc4P(C)(C)=O)n3)cc2Br)CC1` has an inhibition of 76.8% (IGF1R; enzyme activity, inhibitor; 0.1 µM).
`C=CC(=O)Nc1cccc(-c2cnc3[nH]cc(C(=O)NC(C)(C)C)c3n2)c1` has an inhibition of 4% (IGF1R; enzyme activity, inhibitor; 0.1 µM).
For `COc1ccc(NC(=O)Nc2ccc3c(c2)C(=O)N(C(C)CO)CC(C)C(CN(C)Cc2ccc4c(c2)OCO4)O3)cc1` (centres unmarked), the remaining activity was 96% (Insulin-like growth factor 1 receptor, activated (IGF1R, Homo sapiens, UniProt P08069); kinase activity; 0.03 µM, activated kinase; relative to: control).
`CC(=O)N1c2ccc(-c3ccc(CNC(=O)c4cn5cc(-c6cnc(N)nc6)nc(N6CCOCC6)c5n4)cc3)cc2CC[C@@H]1C` gave a remaining binding of 96% (IGF1R; KINOMEscan; 10 µM).
The inhibition of `Cc1cccc(O[C@H]2CCC[C@@H](C(C)CNCc3ccncc3)C2)c1` (relative stereo) is reported as -2% (IGF1R; cell-free assay; 10 µM).
`COc1cc(Nc2nccc(-c3cnn4nc(OC)ccc34)n2)cc(C(F)(F)F)c1` has a remaining binding of 100% (IGF1R; binding, competition with immobilised ligand; 1 µM).
With `Cc1[nH]nc2c1N=C(c1ccccc1Cl)c1cnc(N3CCOCC3)cc1N2` the inhibition was 9.2% (IGF1R; enzyme activity, inhibitor; 0.5 µM).
`Cc1ccc(C)c(-c2ccc3nc(NC(=O)C4CCCCC4)nn3c2)c1` gave a remaining activity of 104% (IGF1R; enzyme activity, Dundee kinase panel; 10 µM).
For `c1ccc2c(Nc3cc(C4CCC4)[nH]n3)nc(Nc3ccc4nc[nH]c4c3)nc2c1`, the remaining activity was 4% (IGF1R; enzyme activity, inhibitor; 0.25 µM).
`O=c1c(-c2ccc(Cl)c(CN3CCOCC3)c2)coc2cc(O)ccc12` gave a remaining activity of 112% (IGF1R; enzyme activity, inhibitor; 1 µM).
`CN1CCN(Cc2ccc(-c3ccc(CO[C@H]4CCC[C@@H]4NC(=O)c4cc(-c5cnn(C)c5)cnc4N)cc3)cc2)CC1` has an inhibition of 6% (IGF1R; enzyme activity, inhibitor; 0.1 µM).
With `Nc1ncc(-c2cc(-c3cnn(CC(F)(F)F)c3)ncc2F)nc1C(=O)NC1CNCC(F)C1` (centres unmarked) the remaining activity was 97.6% (IGF1R; enzyme activity; 1 µM; relative to: DMSO control).
For `C=CC(=O)N1Cc2nc(-c3cc(-c4cc(Cl)cnc4Cl)c(F)cc3F)n(-c3ccncn3)c2C1`, the inhibition was 10.2% (IGF1R; cell-free assay; 1 µM).
`O=C=[N][Ru-4]123([n]4c5ccc(O)cc5c5c6c(c7cc(F)c[n+]1c7c54)C(=O)NC6=O)[S+]1CC[S+]2CC[S+]3CC1` (centres unmarked) has a remaining activity of 92% (IGF1R; enzyme activity; 100 nM, human enzyme, added: 10 µM ATP; relative to: untreated).
The inhibition of `NC(=O)C[C@H]1CCc2sc3ncnc(O[C@H]4CC[C@H](N5CCOCC5)CC4)c3c21` is reported as 3% (IGF1R; enzyme activity, inhibitor; 10 µM).
`O=C(Nc1ccc(Oc2ncnc3[nH]cc(-c4ccccc4)c23)c(F)c1)c1c2n(n(-c3cc(F)ccc3F)c1=O)CCCC2` gave an inhibition of 27% (IGF1R; enzyme activity, inhibitor; 0.5 µM).
`C=C1CCCCCCCCCC(CO)C1=O` (centres unmarked) has a remaining signal of 100% (IGF1R; cell-free assay; 10 µM).
With `CNC(=O)C1CCN(c2cc(C)c(F)cc2NC(=O)c2ccc(-c3cc(O)ccc3C)c(C)c2)CC1` the remaining binding was 94% (IGF1R; binding, competition with immobilised ligand; 1 µM).
The inhibition of `C[C@H]1CN(C(=O)c2cn(-c3ccnc(N)n3)c3cc(C#CC4(O)CCCCC4)ccc23)CCN1` is reported as -1% (IGF1R; enzyme activity, inhibitor, FRET; 1 µM).
`Cc1nc2c(F)cc(-c3nc(Nc4ccc(CNC(=O)CCCCCCC(=O)NO)cc4)ncc3F)cc2n1C(C)C` gave an inhibition of 74% (IGF1R phosphorylated; enzyme activity, inhibitor; 1 µM).
Under “activity vs control”, `O=C(Cc1ccc(OCc2ccccc2)cc1)NC1(C(=O)O)CCN(C(=O)c2ccc(-c3cccc(Cl)c3)cc2)CC1` is recorded as 145% (IGF1R; enzyme activity, inhibitor; 10 µM).

Excerpt of the above:
With `CCN1CCN(Cc2ccc(C(=O)Nc3ccc(C)c(NCc4cnc5[nH]ccc5c4OC)c3)cc2C(F)(F)F)CC1` the remaining binding was 100% (IGF1R; binding, competition with immobilised ligand; 1 µM).
`Cc1nc2c(F)cc(-c3nc(Nc4ccc(CNC(=O)CCCCCCC(=O)NO)cc4)ncc3F)cc2n1C(C)C` gave an inhibition of 74% (IGF1R phosphorylated; enzyme activity, inhibitor; 1 µM).
